Experimental data collected from several papers.
Lines come from different studies, so protocols differ. Values joined by “and” are separate records of one study, mostly repeats; a detail may differ. Numbers after ± are the reported error.

Structure (SMILES) = CNS(=O)(=O)Nc1nccc(Cc2c(C)c3ccc(Oc4ncccc4F)cc3oc2=O)c1F; tested on = SET-2; assay = cell viability; conditions = 7 days; measurement = IC50; value = 6.33 nM
Structure (SMILES) = COC1CN([C@H]2CC[C@H]([C@@]3(C)Oc4c(Cl)cc(C(=O)NCc5c(SC)cc(C)[nH]c5=O)c(C)c4O3)CC2)C1; assay = RNA-seq, measured: MARCHF3 mouse homolog; system = mouse, HT-1376 xenograft, whole blood; conditions = dose not given; how to read = reference: vehicle; measurement = log2 fold change; value = 0.994
Structure (SMILES) = COc1ccccc1-c1ccncc1C(=O)Nc1nnc(OCc2ccc(Cl)cc2)s1; tested on = MDA-MB-436 BRCA1-mutant; conditions = 1.5 µM, single replicate; how to read = reference: untreated; measurement = colony survival; value = 45.2% and 57.4% and 48.1%
Structure (SMILES) = Cc1ncsc1-c1ccc(C(C)NC(=O)C2CC(O)CN2C(=O)C(NC(=O)CCCCCCCCCCN2CCCC(Nc3ncc(Cl)c(Nc4ccccc4S(=O)(=O)C(C)C)n3)C2)C(C)(C)C)cc1 (centres unmarked); tested on = 22Rv1; assay = RNA-seq, measured: ZNF526 mRNA; conditions = concentration not given; how to read = reference: DMSO; measurement = log2 fold change; value = -1.98
Structure (SMILES) = Nc1ncc(-c2cc(-c3cnn(CC(F)(F)F)c3)ncc2F)nc1C(=O)NC1CNCC(F)C1 (centres unmarked); tested on = PYK2; assay = KINOMEscan; conditions = 1 µM; how to read = reference: DMSO control; measurement = remaining binding; value = 88%
Structure (SMILES) = C=CC(=O)N1[C@@H](c2ccc3c(c2)OCO3)c2[nH]c3ccccc3c2C[C@H]1C(=O)N1CCN(C)CC1; tested on = human cyclin E1 wild type-3xFLAG:CDK2; assay = co-IP with TMT proteomics, measured: DNAJA1; conditions = concentration not given, P31689; how to read = reference: wild type DMSO; measurement = relative co-enrichment; value = 91%
Structure (SMILES) = COc1cc2c(NC3CCN(C(C)C)CC3)cc(N3CCOCC3)nc2cc1OCCCN1CCCC1; assay = TMT quantitative proteomics, measured: NPTXR; system = 5xFAD mice, hippocampus; conditions = dose not given; measurement = normalised protein abundance; value = 0.0224 and 0.0836 and 0.102 and 0.0965 and 0.072 and 0.114 and 0.00711 and 0.0709
Structure (SMILES) = CN1CCCNC(=O)c2cccc(c2)C(=O)NCCCN(C)CCCNc2cccc3c2C(=O)c2cccc(c2C3=O)NCCC1; tested on = SAS; assay = RNA-Seq, measured: TADA2A mRNA; conditions = 1 µM, 6 h; how to read = reference: untreated cells; measurement = log2 fold change; value = -1.39
Structure (SMILES) = C=CC(=O)Nc1cccc(Cn2ncc3cnc(Nc4cnn(CCOC)c4)nc32)c1; tested on = TNK1 human; assay = binding, KINOMEscan; conditions = 100 nM; how to read = lower = stronger binding; measurement = percent of control; value = 5.5%
Structure (SMILES) = CCN(CC)CC(=O)Nc1cccc(-n2cc(-c3ccc4ccc(-c5cn(-c6cccc(NC(=O)CN(CC)CC)c6)nn5)cc4c3)nn2)c1; tested on = RCC4; assay = PCR angiogenesis array, measured: FGFR3; conditions = 5 x IC50, 4 h, normoxia; how to read = reference: untreated; measurement = fold regulation; value = -1.19
Structure (SMILES) = COc1cc(O)ccc1CCC(c1ccc(O)cc1)c1cc2c(c(C)c1O)OC(c1ccc(O)cc1)CC2 (mixture of isomers); system = human blood; conditions = 3 µM, with: A23187; measurement = PGE2 level; value = 29 ± 8 pg/mL
